Results pooled from the literature.
Each line is one published result; not all experiments were run side by side. “And” joins repeats or separate records; there may be more than shown. Numbers after ± are the reported error. Values after ≈ are worked out from the molar mass of the structure shown.

| Structure (SMILES) | target or system | assay | system | setting | how to read | quantity | value |
| --- | --- | --- | --- | --- | --- | --- | --- |
| CN(NC(=O)CC(=O)NN(C)C(=S)c1ccccc1)C(=S)c1ccccc1 | human coronavirus OC43 | virus-induced cell killing | MRC-5 | screen | – | maximum inhibition | 28.6% |
| Nc1ncnc2c1ncn2[C@@H]1O[C@@H]2COP(=O)(O)O[C@H]3[C@@H](O)[C@H](n4cnc5c(=O)[nH]cnc54)O[C@@H]3COP(=O)(O)O[C@H]2[C@H]1O | West Nile virus | RNA sequencing Reactome analysis, measured: Muscle contraction (R-HSA-397014) | HFF-1 | concentration not given, downregulated pathways, with: West Nile virus infection | relative to: WNV-infected without compound | fold enrichment | 3.37 |
| CC[C@H](C)[C@@H]1NC(=O)[C@@H]2CCCN2C(=O)[C@H](CC(C)C)NC(=O)[C@H](CC(C)C)NC(=O)CNC(=O)[C@@H](NC(=O)[C@@H](NC(=O)[C@H](CC(=O)O)NC(=O)CNC(=O)[C@@H](NC(=O)[C@H](C)NC(=O)CNC(=O)[C@H](CCCCN)NC(=O)[C@H](CC(C)C)NC(=O)[C@H](CC(C)C)NC(=O)[C@H](CCCCN)NC(=O)CNC(=O)[C@@H](NC(=O)[C@@H](N)CC(C)C)C(C)C)C(C)C)C(C)C)CSSC[C@@H](C(=O)O)NC1=O | – | RNA-seq, measured: Ncf2 | mouse, traumatic brain injury model, frontal cortex and hippocampus | dose not given | relative to: TBI alone | log2 fold change | -2.35 |
| O=C1N[C@@H]2[C@@H](O)[C@@H](O)[C@H](O)[C@@H](CO)N2C1=O | human coronavirus OC43 | virus-induced cell killing | MRC-5 | screen | – | maximum inhibition | 15.8% |
| CCCCC1(CCCC)CN(c2ccccc2)c2cc(SC)c(OCC(=O)N[C@@H](C(=O)NCC(=O)O)c3ccccc3)cc2S(=O)(=O)C1 | – | measured: LDL cholesterol | human, serum | 10 mg once daily, day 8 | – | serum LDL-C | 92.3 mg/dL |
| CCNCCc1c[nH]c2cccc(O)c12.CCNCCc1c[nH]c2cccc(O)c12.O=C(O)CCC(=O)O | – | – | C57BL/6J mice | subcutaneous, 10 mg/kg | relative to: pre-session | body temperature change | -1.9 ± 0.4 °C |
| C[C@]12CC[C@H]3[C@@H](CC=C4CC(O)CC[C@@]43CO)[C@@H]1CCC2O (stereo partly drawn) | – | measured: CD11b, PAI-1 | rat, GAN diet-induced MASH, white adipose tissue | dose not given | relative to: GAN diet plus vehicle | inflammation marker level | decreased |
| COc1c(C)c2c(c(O)c1C/C=C(\C)CCC(=O)O)C(=O)OC2 | OVCAR-4 | cell proliferation | – | – | – | IC50 | 977 nM |
| CCCCCc1cc(O)c2c(c1)OC(C)(C)[C@@H]1CCC(C)=C[C@@H]21 | capacitated human sperm | CASA | – | 10 µM, 1 h | – | Hyperactive motility | decreased |
| COc1ccc(Nc2cc(C(=O)NCCCN(C)Cc3ccccc3)c3ccccc3n2)cc1 | Vero-E6 | CellTiter-Glo ATP | – | concentration not given, 72 h, second round 5-point | relative to: DMSO 0%, hyamine -100%, more negative, more toxic | cytotoxicity efficacy | -9.52% |
| O=C(O)/C=C/C(=O)O.Oc1cccc2[nH]cc(CCNC3CCCCC3)c12 | – | – | C57BL/6J mice | subcutaneous, 0.1 mg/kg | relative to: pre-session baseline | body temperature change | 0.2 ± 0.2 °C |
| CC(O)(CS(=O)(=O)c1ccc(F)cc1)C(=O)Nc1ccc(C#N)c(C(F)(F)F)c1 (stereo not drawn) | THP-1 | pyroptotic LDH release | – | 2 µM, 40 min, with: LPS then nigericin | – | inhibition | -18.1% |
| NC(=O)CN1CC(O)CC1=O (stereo not drawn) | Nedd8-cullin1 interaction | neddylation, AlphaScreen | – | 100 µM | – | inhibition | -19% |
| COc1cc(Cc2cnc(N)nc2N)cc(OC)c1OC | Salmonella enterica | – | – | 20 h, pH 7 | – | MIC | 0.25 µg/mL (≈ 0.861 µM) |
| C[C@H]1O[C@@H](O[C@H]2CC[C@@]3(C)[C@@H](CC[C@]4(C)[C@@H]3C=C[C@]35OC[C@@]6(CCC(C)(C)C[C@H]63)[C@@H](O)C[C@]54C)[C@]2(C)CO)[C@H](O)[C@@H](O[C@@H]2O[C@H](CO)[C@@H](O)[C@H](O)[C@H]2O)[C@H]1O | – | H&E staining | Mus musculus, chronic-plus-binge ethanol-fed, AAV8-TBG-Null vector, liver | oral, high dose | relative to: section | adipose area | 13.4% and 12% and 15.7% and 14.5% and 12.6% and 13.7% and 9.1% |
| COc1c(CCC[P+](c2ccccc2)(c2ccccc2)c2ccccc2)cc2c(c1OC)OCO2.[I-] | SW-620 | SRB | – | – | – | GI50 | -5.71 log M |
| CCN(CC)CCNC(=O)c1c(C)[nH]c(/C=C2\C(=O)Nc3ccc(F)cc32)c1C | human coronavirus OC43 | virus-induced cell killing | MRC-5 | screen | – | maximum inhibition | 9.25% |
| CN1CCN(S(=O)(=O)c2cc([N+](=O)[O-])ccc2N(CCOS(C)(=O)=O)CCOS(C)(=O)=O)CC1 | – | – | NSG mice, sample CF PDX | intraperitoneal, 25 mg/kg weekly x3 | relative to: vehicle | EFS delay (T-C) | 150 days |
| CC(C)NCCc1c[nH]c2cccc(O)c12.O=C(O)/C=C/C(=O)O | – | – | C57BL/6J mice | subcutaneous, 0.03 mg/kg | relative to: pre-session baseline | body temperature change | 0.1 ± 0.2 °C |
| O=C(Cc1ccccc1)Nc1nnc(CCSCCc2nnc(NC(=O)Cc3ccccc3)s2)s1 | human coronavirus OC43 | virus-induced cell killing | MRC-5 | screen | – | maximum inhibition | 8.15% |
| O=C(NCc1ccccc1Cl)C1CCCN(Cc2cccc(-c3ccc(F)cc3F)c2)C1 (stereo not drawn) | Vero-E6 | CellTiter-Glo ATP | – | concentration not given, 72 h, retest 8-point duplicates | relative to: DMSO 0%, hyamine -100%, more negative, more toxic | cytotoxicity efficacy | -33.5% |
| CC(C)(C)NCCc1c[nH]c2cccc(O)c12.CC(C)(C)NCCc1c[nH]c2cccc(O)c12.O=C(O)/C=C/C(=O)O | – | – | C57BL/6J mice | subcutaneous, 30 mg/kg | relative to: pre-session baseline | body temperature change | -0.9 ± 0.1 °C |
| Nc1ccn([C@@H]2C=C(CO)[C@@H](O)[C@H]2O)c(=O)n1 | human coronavirus OC43 | virus-induced cell killing | MRC-5 | screen | – | maximum inhibition | 13% |
| N=C(N)NCCC[C@H](NC(=O)[C@@H](Cc1ccccc1)NC(=O)[C@H](Cc1c[nH]cn1)NC(=O)CCCc1ccccc1)C(=O)N[C@@H](Cc1c[nH]c2ccccc12)C(=O)NCC(=O)N[C@@H](CCCCNC(=O)CCCCCNC(=O)CN1CCN(CC(=O)O)CCN(CC(=O)O)CCN(CC(=O)O)CC1)C(N)=O [actinium-225 labelled] | – | five-compartment model fit | SCID mice, A-375 and A-375/MC1R xenografts | – | – | kidney elimination rate constant (ke) | 0.0008 h⁻¹ |
| CCCc1cc(-c2nc(-c3ccc(C)cc3)cs2)ccn1 | human coronavirus OC43 | virus-induced cell killing | MRC-5 | screen | – | maximum inhibition | 4.31% |
| COc1cc(CCNC(C)c2ccccc2O)c(OC)cc1C#N.Cl (stereo not drawn) | 5-HT2A L123V mutant, human | Gq dissociation, BRET | – | – | relative to: wild-type 5-HT2A | fold loss in potency | 121 fold |
| OC[C@H]1O[C@@H](c2ccc(F)c(Cc3cc4ccccc4s3)c2)[C@H](O)[C@@H](O)[C@@H]1O | human coronavirus OC43 | virus-induced cell killing | MRC-5 | screen | – | maximum inhibition | 18.6% |
| COc1cc(CCC[P+](c2ccccc2)(c2ccccc2)c2ccccc2)c(OC)c2c1OCO2.[I-] | ACHN | SRB | – | – | – | TGI | -4.68 log M |
| CCCNCCc1c[nH]c2cccc(O)c12.CCCNCCc1c[nH]c2cccc(O)c12.O=C(O)/C=C/C(=O)O | – | – | C57BL/6J mice | subcutaneous, 0.1 mg/kg | relative to: pre-session baseline | body temperature change | -0.3 ± 0.1 °C |
| CC(/C=C/C(=O)NO)=C\[C@@H](C)C(=O)c1ccc(N(C)C)cc1 | human coronavirus OC43 | virus-induced cell killing | MRC-5 | maximum over 10 doses | – | maximum inhibition | 0% |

Repeated from above:
| Structure (SMILES) | target or system | assay | system | setting | how to read | quantity | value |
| --- | --- | --- | --- | --- | --- | --- | --- |
| COc1cc(CCC[P+](c2ccccc2)(c2ccccc2)c2ccccc2)c(OC)c2c1OCO2.[I-] | ACHN | SRB | – | – | – | TGI | -4.68 log M |
| COc1ccc(Nc2cc(C(=O)NCCCN(C)Cc3ccccc3)c3ccccc3n2)cc1 | Vero-E6 | CellTiter-Glo ATP | – | concentration not given, 72 h, second round 5-point | relative to: DMSO 0%, hyamine -100%, more negative, more toxic | cytotoxicity efficacy | -9.52% |
| COc1c(CCC[P+](c2ccccc2)(c2ccccc2)c2ccccc2)cc2c(c1OC)OCO2.[I-] | SW-620 | SRB | – | – | – | GI50 | -5.71 log M |
| O=C(Cc1ccccc1)Nc1nnc(CCSCCc2nnc(NC(=O)Cc3ccccc3)s2)s1 | human coronavirus OC43 | virus-induced cell killing | MRC-5 | screen | – | maximum inhibition | 8.15% |
